Assay results collected from several papers.
A part holds a random share of what one study measured.
Sequence of UniProt Q9NWZ3 (whole entry, looked up): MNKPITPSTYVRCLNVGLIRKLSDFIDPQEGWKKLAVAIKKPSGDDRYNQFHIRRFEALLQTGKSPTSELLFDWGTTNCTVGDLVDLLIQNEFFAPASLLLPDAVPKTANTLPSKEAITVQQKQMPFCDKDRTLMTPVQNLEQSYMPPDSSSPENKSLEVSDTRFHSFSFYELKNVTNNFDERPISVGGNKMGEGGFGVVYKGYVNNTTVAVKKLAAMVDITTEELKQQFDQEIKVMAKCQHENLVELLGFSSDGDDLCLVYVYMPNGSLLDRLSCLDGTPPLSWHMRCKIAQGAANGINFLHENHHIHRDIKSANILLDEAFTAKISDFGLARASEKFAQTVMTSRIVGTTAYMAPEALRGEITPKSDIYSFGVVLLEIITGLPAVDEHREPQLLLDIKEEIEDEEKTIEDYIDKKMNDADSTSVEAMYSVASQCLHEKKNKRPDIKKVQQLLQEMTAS
Sequence of UniProt Q9Y243 (whole entry, looked up): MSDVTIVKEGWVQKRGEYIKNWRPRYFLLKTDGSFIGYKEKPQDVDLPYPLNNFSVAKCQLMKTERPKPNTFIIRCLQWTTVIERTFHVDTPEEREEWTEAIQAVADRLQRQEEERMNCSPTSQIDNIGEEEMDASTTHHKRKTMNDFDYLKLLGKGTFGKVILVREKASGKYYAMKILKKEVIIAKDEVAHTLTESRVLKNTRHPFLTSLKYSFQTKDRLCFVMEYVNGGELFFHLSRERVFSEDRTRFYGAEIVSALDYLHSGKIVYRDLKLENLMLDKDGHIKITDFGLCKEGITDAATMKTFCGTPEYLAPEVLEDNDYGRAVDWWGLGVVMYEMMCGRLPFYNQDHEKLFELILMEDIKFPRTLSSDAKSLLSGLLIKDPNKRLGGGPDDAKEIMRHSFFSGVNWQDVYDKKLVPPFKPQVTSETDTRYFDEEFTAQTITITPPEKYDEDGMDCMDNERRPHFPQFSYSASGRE
Sequence of UniProt P53779 (whole entry, looked up): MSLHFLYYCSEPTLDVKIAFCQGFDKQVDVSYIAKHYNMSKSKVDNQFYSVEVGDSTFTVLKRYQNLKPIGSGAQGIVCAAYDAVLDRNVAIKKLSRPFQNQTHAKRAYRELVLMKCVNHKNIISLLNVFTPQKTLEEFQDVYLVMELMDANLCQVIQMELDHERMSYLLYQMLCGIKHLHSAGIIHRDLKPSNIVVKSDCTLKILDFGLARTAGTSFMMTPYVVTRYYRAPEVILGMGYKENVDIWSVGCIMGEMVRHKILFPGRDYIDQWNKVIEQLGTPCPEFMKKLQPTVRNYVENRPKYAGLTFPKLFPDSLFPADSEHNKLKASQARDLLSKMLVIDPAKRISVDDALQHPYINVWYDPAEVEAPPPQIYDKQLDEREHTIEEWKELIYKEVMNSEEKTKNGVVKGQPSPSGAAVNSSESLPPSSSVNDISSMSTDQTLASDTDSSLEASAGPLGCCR
Sequence of UniProt Q00536 (whole entry, looked up): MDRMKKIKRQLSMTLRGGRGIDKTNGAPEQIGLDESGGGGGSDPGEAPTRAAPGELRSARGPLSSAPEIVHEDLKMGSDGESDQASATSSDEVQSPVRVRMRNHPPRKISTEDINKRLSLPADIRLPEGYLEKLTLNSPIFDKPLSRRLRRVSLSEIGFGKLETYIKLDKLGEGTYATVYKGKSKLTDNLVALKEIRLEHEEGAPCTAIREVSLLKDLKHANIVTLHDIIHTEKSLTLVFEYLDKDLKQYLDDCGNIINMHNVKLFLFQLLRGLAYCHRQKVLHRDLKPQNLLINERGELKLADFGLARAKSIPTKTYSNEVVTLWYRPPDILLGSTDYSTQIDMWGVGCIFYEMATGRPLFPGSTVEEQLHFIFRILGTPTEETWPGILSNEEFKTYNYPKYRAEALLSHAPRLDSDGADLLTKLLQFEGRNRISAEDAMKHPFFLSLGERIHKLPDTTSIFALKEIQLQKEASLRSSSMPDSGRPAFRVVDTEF
Sequence of UniProt P68400 (whole entry, looked up): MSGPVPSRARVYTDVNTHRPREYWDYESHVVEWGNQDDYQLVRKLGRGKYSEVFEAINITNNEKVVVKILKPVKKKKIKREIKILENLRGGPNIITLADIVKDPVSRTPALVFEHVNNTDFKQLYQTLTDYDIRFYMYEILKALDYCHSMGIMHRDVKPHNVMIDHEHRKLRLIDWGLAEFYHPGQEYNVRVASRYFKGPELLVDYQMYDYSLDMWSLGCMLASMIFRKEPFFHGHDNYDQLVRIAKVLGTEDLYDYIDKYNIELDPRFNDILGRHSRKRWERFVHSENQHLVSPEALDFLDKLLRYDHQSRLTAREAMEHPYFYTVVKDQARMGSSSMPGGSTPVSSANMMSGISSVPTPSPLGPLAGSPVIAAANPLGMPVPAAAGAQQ
Sequence of UniProt Q05655 (whole entry, looked up): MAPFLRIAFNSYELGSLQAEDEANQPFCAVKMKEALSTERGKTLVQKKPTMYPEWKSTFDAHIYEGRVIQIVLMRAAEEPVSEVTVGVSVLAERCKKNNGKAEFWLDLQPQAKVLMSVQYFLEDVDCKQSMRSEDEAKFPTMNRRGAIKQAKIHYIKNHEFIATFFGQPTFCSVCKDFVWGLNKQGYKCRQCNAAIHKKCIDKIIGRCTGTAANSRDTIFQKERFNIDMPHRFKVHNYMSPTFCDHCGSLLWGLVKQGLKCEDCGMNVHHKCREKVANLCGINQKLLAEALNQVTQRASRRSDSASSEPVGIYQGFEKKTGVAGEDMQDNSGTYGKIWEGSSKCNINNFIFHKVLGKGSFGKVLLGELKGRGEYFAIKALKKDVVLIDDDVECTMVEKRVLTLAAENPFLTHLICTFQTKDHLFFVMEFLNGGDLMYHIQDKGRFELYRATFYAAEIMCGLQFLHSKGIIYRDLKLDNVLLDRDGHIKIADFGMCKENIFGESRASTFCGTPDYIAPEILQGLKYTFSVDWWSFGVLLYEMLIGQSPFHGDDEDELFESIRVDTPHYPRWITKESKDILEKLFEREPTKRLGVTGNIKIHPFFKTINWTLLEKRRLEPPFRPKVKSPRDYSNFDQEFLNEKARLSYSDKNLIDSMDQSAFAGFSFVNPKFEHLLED
Sequence of UniProt O15264 (whole entry, looked up): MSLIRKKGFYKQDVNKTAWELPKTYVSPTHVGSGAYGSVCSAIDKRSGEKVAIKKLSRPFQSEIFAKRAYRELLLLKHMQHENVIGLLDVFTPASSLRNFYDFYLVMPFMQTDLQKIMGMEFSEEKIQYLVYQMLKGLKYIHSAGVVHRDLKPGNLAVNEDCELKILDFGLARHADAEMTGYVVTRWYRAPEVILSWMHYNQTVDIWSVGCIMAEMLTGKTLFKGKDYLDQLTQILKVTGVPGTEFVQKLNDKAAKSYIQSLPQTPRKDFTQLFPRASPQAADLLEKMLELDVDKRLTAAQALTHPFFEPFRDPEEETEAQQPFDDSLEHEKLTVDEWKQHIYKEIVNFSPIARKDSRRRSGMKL

Block 1 — observed: RNA clamping; technique: fluorescence polarization; concentration: concentration not given; notes: mean of two replicates; together with: FAM-labelled poly r(AG)8 RNA; endpoint: fluorescence polarization change
Target: Eukaryotic initiation factor 4A-III (Homo sapiens, UniProt P38919)
Sequence of UniProt P38919 (whole entry, looked up): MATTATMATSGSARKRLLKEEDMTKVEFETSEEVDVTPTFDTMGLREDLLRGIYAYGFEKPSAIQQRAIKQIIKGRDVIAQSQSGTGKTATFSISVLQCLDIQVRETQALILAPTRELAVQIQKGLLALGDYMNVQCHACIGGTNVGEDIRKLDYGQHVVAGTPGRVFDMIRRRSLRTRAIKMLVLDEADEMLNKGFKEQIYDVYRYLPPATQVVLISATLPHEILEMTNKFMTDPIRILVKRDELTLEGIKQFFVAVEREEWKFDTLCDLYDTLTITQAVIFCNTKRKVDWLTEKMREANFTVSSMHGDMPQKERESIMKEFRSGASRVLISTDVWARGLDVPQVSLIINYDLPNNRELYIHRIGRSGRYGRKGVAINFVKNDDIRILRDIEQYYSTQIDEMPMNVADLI
COc1ccc([C@@]23Oc4cc(OC)cc(OC)c4[C@]2(O)[C@H](O)[C@H](C(=O)NOCc2ccccc2)[C@H]3c2ccccc2)cc1: 5.2 mP
COC(=O)[C@H]1[C@@H](O)[C@@]2(O)c3c(OC)cc(OS(=O)(=O)c4ccc(C)cc4)cc3O[C@@]2(c2ccc(OC)cc2)[C@@H]1c1ccccc1: 4.4 mP
COc1ccc([C@@]23Oc4cc(OC)cc(OC)c4[C@]2(O)c2nc(-c4ccccn4)[nH]c(=O)c2[C@H]3c2ccccc2)cc1: 10.2 mP
COc1ccc([C@@]23Oc4cc(OC)cc(OC)c4[C@]2(O)[C@H](O)[C@H](C(=O)c2nccn2C)[C@H]3c2ccccc2)cc1: 15.6 mP
COC(=O)[C@@H]1[C@@H](c2ccccc2)[C@]2(c3ccc(OC)cc3)Oc3cc(OC)cc(OC)c3[C@@]23OC(c2cccnc2)=N[C@@]13O: 3.5 mP
CO/N=C(\c1ccco1)[C@H]1[C@@H](O)[C@@]2(O)c3c(OC)cc(OC)cc3O[C@@]2(c2ccc(OC)cc2)[C@@H]1c1ccccc1: 7.3 mP
COC(=O)[C@@H]1[C@@H](c2ccccc2)[C@]2(c3ccc(OC)cc3)Oc3cc(OC)cc(OC)c3[C@@]23NC(C2CCN(C(=O)OC(C)(C)C)CC2)=N[C@@]13O: 15.1 mP
COc1ccc([C@@]23Oc4cc(OC)c(Cl)c(OC)c4[C@]2(O)c2nc4n(c(=O)c2[C@H]3c2ccccc2)CCC4)cc1: 16 mP
COc1ccc([C@]23Oc4cc(OC)cc(OC)c4[C@@]2(O)c2nc(-c4ccc(C)cc4)[nH]c(=O)c2[C@@H]3c2ccccc2)cc1: 21.8 mP
O[C@H]1C[C@@H](c2ccccc2)[C@]2(c3ccc(Cl)cc3)Oc3cc(OCCN4CCCC4)ccc3[C@]12O: 74 mP
COC(=O)[C@@H]1[C@@H](c2ccccc2)[C@]2(c3ccc(OC)cc3)Oc3cc(OC)cc(OC)c3[C@@]23NC(c2cccnc2)=N[C@@]13O: 27.4 mP
COC(=O)[C@H]1C(=O)[C@@]2(NCC3CCOCC3)c3c(OC)cc(OC)cc3O[C@@]2(c2ccc(OC)cc2)[C@@H]1c1ccccc1: -2.6 mP
C#CCCC(=O)O[C@@H]1[C@H](C(=O)c2ccco2)[C@@H](c2ccccc2)[C@]2(c3ccc(OC)cc3)Oc3cc(OC)cc(OC)c3[C@]12O: 6.2 mP
COc1ccc([C@]23Oc4cc(OC)cc(OC)c4[C@](O)([C@H](C(=O)NCCCC(OC)OC)[C@H]2c2ccccc2)[C@@H]3O)cc1: 0 mP

Block 2 — observed: cell-free assay; technique: competition with immobilised ligand; concentration: 1 µM; endpoint: remaining binding
SMILES: COc1ccc2c(O[C@@H]3C[C@H]4C(=O)N[C@]5(C(=O)O)CC5/C=C\CCCCC[C@H](NC(=O)OC5CCCC5)C(=O)N4C3)cc(-c3csc(NC(=O)C(C)C)n3)nc2c1C (some centres unmarked)
MINK1 (Homo sapiens, UniProt Q8N4C8): 62%
MAP3K9 (Homo sapiens, UniProt P80192): 100%
MAST1 (Homo sapiens, UniProt Q9Y2H9): 98%
GRK7 (Homo sapiens, UniProt Q8WTQ7): 87%
CDK16 (Homo sapiens, UniProt Q00536): 79%
Tyrosine-protein kinase ABL1, non-phosphorylated (ABL1, Homo sapiens, UniProt P00519, Q252H): 70%
MST1R (Homo sapiens, UniProt Q04912): 100%
ERBB2 (Homo sapiens, UniProt P04626): 97%
IRAK4 (Homo sapiens, UniProt Q9NWZ3): 71%
PAK4 (Homo sapiens, UniProt O96013): 99%
MAPK10 (Homo sapiens, UniProt P53779): 71%
Non-receptor tyrosine-protein kinase TYK2, JH2 (TYK2, Homo sapiens, UniProt P29597): 74%
NEK1 (Homo sapiens, UniProt Q96PY6): 100%
EGFR (Homo sapiens, UniProt P00533): 92%
MTOR (Homo sapiens, UniProt P42345): 100%

Block 3 — Structure (SMILES): CCCCc1c(-c2ccc(O)cc2)[nH]c2nccnc12; observed: enzyme activity; mode: inhibitor; concentration: 0.5 µM; relative to: control; endpoint: remaining activity
PRKCD (Homo sapiens, UniProt Q05655): 102%
CSNK2A1 (Homo sapiens, UniProt P68400): 95.9%
MAP3K10 (Homo sapiens, UniProt Q02779): 74.3%
MAP4K2 (Homo sapiens, UniProt Q12851): 28.2%
IRAK4 (Homo sapiens, UniProt Q9NWZ3): 159%
PRKCI (Homo sapiens, UniProt P41743): 99.4%
BTK (Homo sapiens, UniProt Q06187): 61.7%
EPHA5 (Homo sapiens, UniProt P54756): 96.4%
Cyclin-dependent kinase 9, with cyclin T1 (CDK9, Homo sapiens, UniProt P50750): 45.9%
CHEK1 (Homo sapiens, UniProt O14757): 92.9%
LYN (Homo sapiens, UniProt P07948): 87.3%
PRKG1 (Homo sapiens, UniProt Q13976): 94.5%
MAP2K6 (Homo sapiens, UniProt P52564): 100%
MKNK2 (Homo sapiens, UniProt Q9HBH9): 107%
WNK2 (Homo sapiens, UniProt Q9Y3S1): 117%
PLK2 (Homo sapiens, UniProt Q9NYY3): 83.9%
MAPK13 (Homo sapiens, UniProt O15264): 101%
CSNK1A1 (Homo sapiens, UniProt P48729): 92.9%
LRRK2 (Homo sapiens, UniProt Q5S007): 80%
AKT3 (Homo sapiens, UniProt Q9Y243): 95.8%
NEK4 (Homo sapiens, UniProt P51957): 82.2%
KIT (Homo sapiens, UniProt P10721): 80.8%

Block 4 — organism: Plasmodium berghei; mode: inhibitor; cells: Huh-7; strain: liver stage; concentration: 10 µM; time: 24 h; relative to: untreated control; endpoint: infection rate
CC(COc1ccccc1)NC(C)C(O)c1ccc(O)cc1 (centres unmarked): 79%
CC(C)(C)NC[C@H](O)c1ccc(O)c(CO)c1: 109%
CCOc1ccc2nc(S(N)(=O)=O)sc2c1: 117%
C/C(=C\C(=O)OCCCCCCCCC(=O)O)C[C@@H]1OC[C@H](C[C@@H]2O[C@H]2[C@@H](C)[C@H](C)O)[C@@H](O)[C@H]1O: 110%
CC(C)[C@H]1CC[C@H](C(=O)N[C@H](Cc2ccccc2)C(=O)O)CC1: 127%
Oc1ccc(OCc2ccccc2)cc1: 84.6%
Cc1ccc(Cl)c(Nc2ccccc2C(=O)O)c1Cl: 105%
OCCN1C[C@H](O)[C@@H](O)[C@H](O)[C@H]1CO: 97.7%
CNC1(C)C2CCC(C2)C1(C)C (centres unmarked): 102%
C1N2CN3CN1CN(C2)C3: 94.4%
NC(=O)c1cccnc1: 102%
COc1c(N2C[C@@H]3CCCN[C@@H]3C2)c(F)cc2c(=O)c(C(=O)O)cn(C3CC3)c12: 93.8%
N[C@@H](Cc1ccc(O)c(O)c1)C(=O)O: 90.6%
CC(=O)/N=c1/sc(S(N)(=O)=O)nn1C: 106%
CC(C)Cc1ccc(C(C)C(=O)O)cc1 (centres unmarked): 109%
CCC(NC(C)C)C(O)c1ccc(O)c(O)c1 (centres unmarked): 92.7%
CC(C)(C)NCC(O)COc1cccc2c1C[C@H](O)[C@H](O)C2 (mixture of isomers): 97.8%

A few entries again (block 4):
Cc1ccc(Cl)c(Nc2ccccc2C(=O)O)c1Cl: 105%
OCCN1C[C@H](O)[C@@H](O)[C@H](O)[C@H]1CO: 97.7%
CNC1(C)C2CCC(C2)C1(C)C (centres unmarked): 102%
C1N2CN3CN1CN(C2)C3: 94.4%
NC(=O)c1cccnc1: 102%
COc1c(N2C[C@@H]3CCCN[C@@H]3C2)c(F)cc2c(=O)c(C(=O)O)cn(C3CC3)c12: 93.8%
N[C@@H](Cc1ccc(O)c(O)c1)C(=O)O: 90.6%
CC(=O)/N=c1/sc(S(N)(=O)=O)nn1C: 106%
CC(C)Cc1ccc(C(C)C(=O)O)cc1 (centres unmarked): 109%
CCC(NC(C)C)C(O)c1ccc(O)c(O)c1 (centres unmarked): 92.7%
CC(C)(C)NCC(O)COc1cccc2c1C[C@H](O)[C@H](O)C2 (mixture of isomers): 97.8%
